Measured values from different studies.
A part holds a random share of what one study measured.

Study 1 — technique: protein-binding microarray; molecule type: double-stranded DNA, one strand shown; matrix: in vitro; tested at: 250 nM; notes: 60-bp whole probe; together with: salmon DNA 0.4 mg/ml; relative to: random background probes; reading: higher = stronger binding; shared flanks, not repeated: GCCTAGCAC … GTCTTGATTCGCTTGACGCTGCTG
Target: Interferon regulatory factor 5, full length, phosphomimetic (IRF5, Homo sapiens, UniProt Q13568-2, residues 1-514, K96S/S451D/S453D/S456D/S462D)
Oligonucleotide	log fluorescence [z-score]
ATAGATCTCAGTATCGATTAGTGCTAG	6.72
TGCAACATCTACAATGGCTTTGTGCTA	-0.272
GACGGTTCCGGTTTAGGGACGTGCTAG	1.45
CTCTGTCTGGGATGTAATTCCGTGCTA	-0.0659
GATGGTTTCGGTATCGGGACGTGCTAG	10.3
TCACCTTGAACTTTGGCACTGTGCTAG	0.108
AGTTTTTACTTTCTGAATGCGTGCTAG	4.34
CACGGTTTCGGTATCGGGACGTGCTAG	9.75
GAAGATCTCAGTTTCGAGACGTGCTAG	5.34
TCACCTTGGGCTCTAGGACTGTGCTAG	-0.417
TTTGAACTGAGTCTCGATTAGTGCTAG	0.736
TCATTTGTTTTTTTCTAACTGTGCTAG	1.44
CTTCCACTTAGGGTGGCTGGGTGCTAG	0.201
TTATGTATCGGGTATCGGTTAGTGCTA	6.87
TCCCCTTCTACTCTCCTGCAGTGCTAG	0.0595
TTGGGACTGGGTATCGGTTAGTGCTAG	3.72
GACGGTTTCGATATCGGGACGTGCTAG	8.91
GACTATATCAGACTGGAGACGTGCTAG	0.00161
GACGAACTGTGGTATCGAGACGTGCTA	0.716
CACGATATCAGTCTCGAGACGTGCTAG	1.1
AACTAAAGAGACCACAAAAAGTGCTAG	0.353
TCATTTTTCCCCTGCACACTGTGCTAG	0.958
TTAGGTCTCGGTCTCGGGTAGTGCTAG	0.407
TTAGGTTTCCCTTTCCTTTAGTGCTAG	1.72
GACGAACTGAGCATCGAGACGTGCTAG	-0.0763

Study 2 — technique: aptamer microarray, sandwich; molecule type: DNA with 2'F-ANA; matrix: in vitro; tested at: 200 nM; together with: Cy3 exosite-II aptamer, 400 nM; reading: higher = stronger binding; oligonucleotide: GGTTGGTGTGGTTGG
Target: Prothrombin, mature alpha-thrombin (F2, Homo sapiens, UniProt P00734)
Notes: whole 15-mer aptamer, many near background
Modification	mean fluorescence intensity
2'F-ANA at 1 10 12 14	44.7 a.u.
2'F-ANA at 2 3 4 6 7 10 11 13 14 15	130 a.u.
2'F-ANA at 1 2 3 4 9 10 13	55.8 a.u.
2'F-ANA at 5 6 7 8 10 11 13 14 15	46.1 a.u.
2'F-ANA at 1 2 4 5 8 11 13 15	51.6 a.u.
2'F-ANA at 1 2 7 9 10 15	72.5 a.u.
2'F-ANA at 2 5 6 10 12 14 15	50.5 a.u.
2'F-ANA at 1 2 4 5 6 9 11 12 13	85.1 a.u.
2'F-ANA at 1 2 3 7 8 9 11 13 15	183 a.u.
2'F-ANA at 1 2 3 13 15	175 a.u.
2'F-ANA at 2 5 7 8 9 10 13 15	59 a.u.
2'F-ANA at 1 2 3 4 5 11 12 13 14	47 a.u.
2'F-ANA at 11 12 13 14 15	198 a.u.
2'F-ANA at 2 3 6 8 11 12 14	498 a.u.
2'F-ANA at 3 5 6 7 8 9 11 14	51.9 a.u.
2'F-ANA at 1 3 4 6 9 11 13 14 15	67.3 a.u.
2'F-ANA at 1 2 3 5 8 9 10 13 15	51.4 a.u.
2'F-ANA at 1 7 11 12 13 14 15	71.3 a.u.
2'F-ANA at 2 3 4 6 8 9 10 11 12 14	166 a.u.
2'F-ANA at 2 3 6 8 9 11 12 13 15	808 a.u.
2'F-ANA at 1 2 4 5 8 9 11 13	52.3 a.u.
2'F-ANA at 1 2 3 4 9 10 11 12 13 14	53.6 a.u.
2'F-ANA at 6 7 10 13 14 15	113 a.u.
2'F-ANA at 1 4 5 6 9 12 15	104 a.u.
2'F-ANA at 2 4 5 6 7 8 11 12 13	138 a.u.

Study 3 — technique: protein binding microarray; molecule type: double-stranded DNA, one strand shown; matrix: in vitro; tested at: not given; relative to: not given; reading: higher = stronger binding
Target: Histone acetyltransferase KAT6A, both winged helices, GST fusion (KAT6A, Homo sapiens, UniProt Q92794, residues 1-181)
Notes: 8-mer, flanks averaged, mean of 2 arrays, mostly near background
Construct (chain): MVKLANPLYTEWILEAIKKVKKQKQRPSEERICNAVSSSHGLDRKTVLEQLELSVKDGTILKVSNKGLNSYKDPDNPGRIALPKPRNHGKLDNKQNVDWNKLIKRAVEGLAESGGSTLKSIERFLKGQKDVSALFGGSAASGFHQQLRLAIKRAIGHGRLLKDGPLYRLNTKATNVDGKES
Oligonucleotide	E-score
ATCTCGGA	0.0193
CGGTTGTA	0.219
ATAGCAAT	-0.199
GCGTTTAC	0.185
AAAACTCC	-0.0594
TCACGTCA	-0.0895
GACACAGA	-0.0643
ACTTTGCC	0.0145
CATACGCA	0.131
CAGAGACC	0.01
CGCGTGGC	0.247
CCCACTAC	-0.315
CTTTTGAC	-0.0523
ATATGGAA	-0.0479
CTTTGTGC	-0.0523
CCAAAGGA	-0.129
CAAGCCAG	-0.254
ACAGGTCC	-0.0365
CTATCCTA	-0.175
GATATACC	-0.0023
TACCTAAA	-0.099
TATCCACA	-0.19

Study 4 — technique: RNA Bind-n-Seq; molecule type: RNA; matrix: in vitro; tested at: 200 nM; notes: whole 134-nt RNA, ends assumed; together with: 150 mM LiCl; relative to: input library; reading: higher = stronger binding; all molecules: 7-deaza-guanosine replaces G
Target: Fragile X messenger ribonucleoprotein 1, C-terminal low-complexity region (Fmr1, Mus musculus, UniProt P35922)
Shared flanks, not repeated: GGGAGUUCUACAGUCCGACGAUC … UGGAAUUCUCGGGUGUCAAGG
Oligonucleotide	log2 enrichment
UGGCCCUGGUGGCAUGCGGGGCGGAAGAGGUGGCCUCAUGGAUCGUGGUGGUCCCGGUGGAAUGUUCAGAGGUGGCCGUGGUGGAGACAG	0.379
CUGUGCUACACAUCGUAUGUACCGAAUCGGGGUUUUUUUGGGGAAAAAAAGGGGAAAGGGGAAAGUAUUAUGUUACGCCGUUCGGAUCUG	-1.52
UAACUUUAGAGGACGAUCUGAUGGAUAUGGCAGUGGACGUGGAUUUGGGGAUGGCUAUAAUGGGUAUGGAGGAGGACCUGGAGGUGGCAA	0.424
ACCAUGCAGGUGGGCAUCUUUGGGAAGUGGGGCAAGGGGGGGAUAGGGAGGGGAAAAACACUUUGGGAACAGGUGGUCCCAGGUCGUUUC	1.16
GUCCUGUGCUACACAUCGUAUGUACCGAAUCGGGGUGGGGAAAGGGGUUUUUUUGGGGAAAGUAUUAUGUUACGCCGUUCGGAUCUGCAC	0.745
AGUCCUGUGCUACACAUCGUAUGUACCGAAUCGGGUUUUUGGGAGGGAAAAAAAGGGAAAGUAUUAUGUUACGCCGUUCGGAUCUGCACU	-1.51
CCUCAAGUCCUGUGCUACACAUCGUAUGUACCGAAUCGGGUGGGGUGGGUGGAAAGUAUUAUGUUACGCCGUUCGGAUCUGCACUUCCAG	-0.57
UCCUGUGCUACACAUCGUAUGUACCGAAUCGGUUUUUUGGGUUUUUUGGGUUUUUUGGGGAAAGUAUUAUGUUACGCCGUUCGGAUCUGC	-1.31
CAAGUCCUGUGCUACACAUCGUAUGUACCGAAUCGGUUUUUGGUUUUUGGUUUGGAAAGUAUUAUGUUACGCCGUUCGGAUCUGCACUUC	-2.05
CUGUGCUACACAUCGUAUGUACCGAAUCGGGGUUUUUUUGGUUUUUUUGGGGUUUUUUUGGAAAGUAUUAUGUUACGCCGUUCGGAUCUG	0.571
CACAGACAACACGCACCCACACAGACACAGAGGGAAGGGGUUGGGAUGGGGACAGGGUGCACAGCAGGGCGGGGUAGGACCCCAACCCCU	0.764

Excerpt of the above (study 3):
Oligonucleotide	E-score
GACACAGA	-0.0643
ACTTTGCC	0.0145
CATACGCA	0.131
CAGAGACC	0.01
CGCGTGGC	0.247
CCCACTAC	-0.315
CTTTTGAC	-0.0523
ATATGGAA	-0.0479
